Experimental data of several laboratories.
A part holds a random share of what one study measured.

Series 1
Target: Histone acetyltransferase KAT6A, both winged helices, GST fusion (KAT6A, Homo sapiens, UniProt Q92794, residues 1-181)
Method: protein binding microarray
Form: double-stranded DNA, one strand shown
Sample: in vitro
Concentration: not given
Setting: 8-mer, flanks averaged, mean of 2 arrays, mostly near background
Relative to: not given
Reading: higher = stronger binding
Endpoint: E-score
Construct (chain): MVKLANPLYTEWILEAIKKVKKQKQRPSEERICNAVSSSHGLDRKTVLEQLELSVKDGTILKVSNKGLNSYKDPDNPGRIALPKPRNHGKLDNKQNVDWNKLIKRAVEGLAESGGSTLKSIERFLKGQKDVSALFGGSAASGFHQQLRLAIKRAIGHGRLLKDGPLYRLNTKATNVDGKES
AGGACTCG: -0.0713
ACCGGACC: 0.0969
TACCCCCA: -0.249
ACTCCGAC: 0.0975
CTAGGGGC: -0.122
GTAAGATA: -0.0172
CGTAGATA: 0.0227
ATGCACTC: 0.119
CAAGAGCG: 0.099
CCGCCTTC: 0.0697
CTTATATA: -0.0869
CGAGTCCA: -0.079
CCCAGATC: -0.14
GGGCAAAC: -0.0296
AGTCGGGC: 0.116
ATGTTAAC: 0.0794
CTTATAGC: -0.0493
GCCTGCGA: -0.0808
AAATTTGT: -0.0947
AAGAAATT: 0.00724
CCGAGCCA: 0.0792
GCATAGGC: -0.0376
CAGATGTA: -0.0844
CTGTATGC: 0.00908

Series 2
Target: Ras GTPase-activating protein-binding protein 1, full length (G3BP1, Homo sapiens, UniProt Q13283)
Chain of UniProt Q13283 (whole entry, looked up): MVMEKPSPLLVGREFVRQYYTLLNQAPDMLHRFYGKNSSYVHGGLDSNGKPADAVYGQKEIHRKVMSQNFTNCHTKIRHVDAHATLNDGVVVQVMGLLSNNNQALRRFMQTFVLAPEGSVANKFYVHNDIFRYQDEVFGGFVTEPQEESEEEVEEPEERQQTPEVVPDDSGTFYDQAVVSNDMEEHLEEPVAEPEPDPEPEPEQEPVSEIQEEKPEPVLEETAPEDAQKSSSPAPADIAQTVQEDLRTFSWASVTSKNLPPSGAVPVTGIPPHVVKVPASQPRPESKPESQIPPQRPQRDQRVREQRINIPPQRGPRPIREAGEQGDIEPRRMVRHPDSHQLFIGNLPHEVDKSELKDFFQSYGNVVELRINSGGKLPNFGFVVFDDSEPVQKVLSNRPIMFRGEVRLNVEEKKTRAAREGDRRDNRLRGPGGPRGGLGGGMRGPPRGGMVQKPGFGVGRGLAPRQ
Method: RNA Bind-n-Seq
Form: RNA
Sample: in vitro
Concentration: 200 nM
Setting: whole 134-nt RNA, ends assumed
With: 150 mM KCl
Relative to: input library
Reading: higher = stronger binding
Endpoint: log2 enrichment
Shared flanks, not repeated: GGGAGUUCUACAGUCCGACGAUC … UGGAAUUCUCGGGUGUCAAGG
UCAAGUCCUGUGCUACACAUCGUAUGUACCGAAUCGGGGAAGGGAAGGAAGGGGAAAGUAUUAUGUUACGCCGUUCGGAUCUGCACUUCC: 0.749
CAAGUCCUGUGCUACACAUCGUAUGUACCGAAUCGGGUUUUUGGGAAAGGGUGGGAAAGUAUUAUGUUACGCCGUUCGGAUCUGCACUUC: 0.466
CUCAAGUCCUGUGCUACACAUCGUAUGUACCGAAUCGGGAAAGGGAGGGAGGGAAAGUAUUAUGUUACGCCGUUCGGAUCUGCACUUCCA: 1.37
CUGUGCUACACAUCGUAUGUACCGAAUCGGAAAAAAAGGGGAAAAAAAGGGAAAAAAAGGGAAAGUAUUAUGUUACGCCGUUCGGAUCUG: -1
UCCUGUGCUACACAUCGUAUGUACCGAAUCGGGGAAAAAGGGGUGGGGAAAAAAAGGGGAAAGUAUUAUGUUACGCCGUUCGGAUCUGCA: 0.571
ACCAUGCAGGUGGGCAUCUAUGGGAAGUGGGGCAAGGGGGGGAUAGGGAGGGGGGUAACACUUUGGGAACAGGUGGUCCCAGGUCGUUUC: 1.37
GUCCUGUGCUACACAUCGUAUGUACCGAAUCGGAAAAAGGGAAAAAGGGAAAAAGGGGAAAGUAUUAUGUUACGCCGUUCGGAUCUGCAC: -0.354
UGCAGAAGCAUCUUCAGUUGGAGAGCCAUUGCCUCUUGCUGUGAAAUAUUUGGGAAUCUUCAGAAACCAUGAAGAAUAACCUGCUAAAGG: -1.66
CAAGUCCUGUGCUACACAUCGUAUGUACCGAAUCGGUUUGGUUUUUUUGGAAAGGAAAGUAUUAUGUUACGCCGUUCGGAUCUGCACUUC: -1.01

Series 3
Target: RNA binding protein fox-1 homolog 2, RRM domain, GST-SBP tag (RBFOX2, Homo sapiens, UniProt O43251-10, residues 100-194)
Method: RNA Bind-n-Seq
Form: RNA
Sample: in vitro
Concentration: 365 nM
Setting: natural RNA segment, single round, ends assumed
Relative to: no-protein control
Reading: higher = stronger binding
Endpoint: RBNS enrichment (R)
Shared flanks, not repeated: GGGAGUUCUACAGUCCGACGAUC … UGGAAUUCUCGGGUGCCAA
Target sequence (chain): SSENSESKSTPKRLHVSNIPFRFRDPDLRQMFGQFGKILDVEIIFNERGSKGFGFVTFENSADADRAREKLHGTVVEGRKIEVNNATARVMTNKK
CCAGGCUUGACAUAGGUAUUAAGUCAAAAUUACAUGAAACCCAGUGGUAAAAAAGCCUCUGAAAGCUGUAACACCCUCAGUAAUAACAAAAGGGAUUUUUAUUUCACAGC: 0.512
AACCAGGCCCUGAUGUAGGGGUCGUCCGCUCAGGCUGCCCCCUUGGGCUCUUGCAGCUCUUGUUCAGGUAGUCGCCCUUCUGGUUUGUUCUCUGUGGGGCAGUUGGUGGG: 0.368
CCCACCGCCCUCCCUGGAUAGGAUUUGGGCAGGGUUUCAGUCUCCACUGAUUGCCGCCUUGUUCUCCCUGACUGAUUGCUGCCUUGCUGGCUAGCCCAAGGGCCCUGCCA: 7.74
GUCUCCAGUUACAACUCCGCAGUGGAUGUGAAGAAGCAAAAAAAAAAAAAUCUAUUCAGUCUACUCACAAAACAGUACAUUGUGGAAUAUUAUGGGGAAUUGUACCAAAA: 0.641
AACAACUUGAAGAUUGUAGCAAUAAGCUGGACUAGUGUCCUAAAAAUGGCUAACUGAUGAAUUAGAAGCCAUCUGACAGCAGGCCACUAGUGACAGUUUCUUUUGUGUUC: 0.272
UUGUAUGUGGAAAUGGAUUAACAUACCCCUUUAUGCCUAAAAAAAAAAUAAAAAAAUAUGUCUUCACAUAUCCCUCAUAGCUGUCUGCCUCUUGUCUGCAAUAGGAUGUU: 0.776
CCGUGUAGACAUAGUGUACUCAGCAGAUGUAGAAUGUGAGCUCAUCAGCCUUGGCCUGGCUGAAACAGGCUUGCAUCCAACGUGAGACCGACAGACGGACAGACGGACAG: 0.393
CUGAGGGUAUUAUGUAACCCUUCAGAAAACCACUUUGCCUCAUUGUGUUUCAGGAUUAACUUCUACAUGCCUUUAAGUUUUUCUGAGUAUCAGCAUAUCAUUUAGACAUU: 0.37

Series 4
Target: Sal-like protein 4, full length isoform B (SALL4, Homo sapiens, UniProt Q9UJQ4-2, residues 1-616)
Method: universal PBM
Form: double-stranded DNA, one strand shown
Sample: in vitro
Concentration: not given
Setting: 8-mer, flanks averaged, mean of replicates
Reading: higher = stronger binding
Endpoint: E-score
CGTCAAGC: -0.231
GGCACGCA: -0.246
AAGAGTGG: -0.275
AACAACCT: -0.013
GACTGCAC: -0.15
GAACTTAA: 0.00725
AACTACAG: 0.0299
CGGTACAA: 0.12
CTCCGACA: -0.122
ACTAGCGG: -0.188
ACTGGCGG: -0.147
GCGATCAC: -0.189
GAAACTTA: 0.274
ATGCCAAT: 0.101
GACCGTGA: -0.186
AGATGGAT: -0.0692
ACACCCTG: -0.259
CTGCCGTC: -0.319
GTAGGCCA: -0.137
AAACTAAA: 0.238
CATGTTCG: 0.0238
AGGTTCAC: -0.195
AGGAAATA: 0.353
CAAGGAGC: 0.00206
